Measured values from different studies.
Lines come from different studies, so protocols differ. Values joined by “and” are separate records of one study, mostly repeats; a detail may differ. ± gives the spread as reported.
UniProt Q9C0E2, sequence (whole entry, looked up): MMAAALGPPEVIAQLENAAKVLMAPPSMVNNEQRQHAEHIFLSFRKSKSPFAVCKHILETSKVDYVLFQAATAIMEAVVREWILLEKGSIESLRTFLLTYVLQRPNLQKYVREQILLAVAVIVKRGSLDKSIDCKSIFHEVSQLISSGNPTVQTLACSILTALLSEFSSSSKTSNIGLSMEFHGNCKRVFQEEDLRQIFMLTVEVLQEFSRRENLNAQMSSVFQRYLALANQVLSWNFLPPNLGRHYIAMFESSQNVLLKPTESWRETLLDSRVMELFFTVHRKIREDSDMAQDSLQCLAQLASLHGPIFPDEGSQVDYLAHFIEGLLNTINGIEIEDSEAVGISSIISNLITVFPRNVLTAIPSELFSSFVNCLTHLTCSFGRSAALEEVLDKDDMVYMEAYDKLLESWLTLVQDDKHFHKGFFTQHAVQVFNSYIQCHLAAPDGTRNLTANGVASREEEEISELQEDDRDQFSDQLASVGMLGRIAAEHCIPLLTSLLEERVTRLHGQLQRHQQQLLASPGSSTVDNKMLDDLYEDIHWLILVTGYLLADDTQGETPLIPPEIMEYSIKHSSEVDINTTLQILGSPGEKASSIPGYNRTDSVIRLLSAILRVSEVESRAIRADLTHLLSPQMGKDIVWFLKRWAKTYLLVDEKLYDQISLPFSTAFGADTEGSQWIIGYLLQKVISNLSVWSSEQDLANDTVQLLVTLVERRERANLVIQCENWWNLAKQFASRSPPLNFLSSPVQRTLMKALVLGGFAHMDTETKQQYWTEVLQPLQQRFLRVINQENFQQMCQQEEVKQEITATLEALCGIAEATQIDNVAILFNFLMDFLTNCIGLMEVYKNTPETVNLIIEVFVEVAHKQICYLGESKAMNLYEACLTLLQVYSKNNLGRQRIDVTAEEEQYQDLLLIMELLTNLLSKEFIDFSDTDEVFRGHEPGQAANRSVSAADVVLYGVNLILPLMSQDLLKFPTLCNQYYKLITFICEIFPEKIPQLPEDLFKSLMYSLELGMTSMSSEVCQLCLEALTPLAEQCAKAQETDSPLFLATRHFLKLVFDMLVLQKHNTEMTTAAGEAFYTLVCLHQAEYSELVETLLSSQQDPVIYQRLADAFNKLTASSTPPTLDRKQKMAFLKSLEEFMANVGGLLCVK

| Structure (SMILES) | target or system | assay | test system | conditions | how to read | measurement | value |
| --- | --- | --- | --- | --- | --- | --- | --- |
| CC(C)n1c(C2CCNCC2)nc2c([N+](=O)[O-])c(Br)c(Br)cc21 |  |  | patients with AML | 125 mg, drug-induced liver injury |  | AE leading to discontinuation | 2% |
| O=C(O)CCC(CP(=O)(O)O)C(=O)O (stereo not shown) |  |  | rat plasma | 8 µg/mL, freeze-thaw cycle 2 at -80 °C |  | measured concentration | 7.59 ± 0.14 µg/mL |
| COc1cc(Nc2ncc(F)c(Nc3ccc4c(n3)NC(=O)C(C)(C)O4)n2)cc(OC)c1OC | lipid peroxidase |  |  |  |  | IC50 | > 10 µM |
| C[C@H]1CN(c2n[nH]c3nc(N[C@H]4CC[C@H](NS(=O)(=O)CCC(F)(F)F)CC4)ncc23)CCO1 | Exportin-4 (Homo sapiens, UniProt Q9C0E2) | Kinobeads competition, item: XPO4 |  | 20 µM, unit not given | relative to: vehicle | remaining binding | 1.23 |
| C[C@@H](O)[C@@H](CO)NC(=O)[C@@H](CCCNC(=N)N)NC(=O)[C@@H]1CCCN1C(=O)[C@@H]1CSSC[C@H](NC(=O)[C@H](Cc2ccccc2)NC(=O)CN2CCN(CC(=O)O)CCN(CC(=O)O)CCN(CC(=O)O)CC2)C(=O)N[C@@H](Cc2ccc(O)cc2)C(=O)N[C@@H](Cc2ccccc2)C(=O)N[C@@H](CCC(N)=O)C(=O)N[C@@H](CC(N)=O)C(=O)N1 [gallium-68 labelled] |  |  | Wistar rat, healthy, Lacrimal gland | intravenous, 8 MBq, 120 min |  | tissue uptake | 0.05 %ID/g |
| CN[C@H]1CC[C@@H](c2ccc(Cl)c(Cl)c2)c2ccccc21 |  |  | CD-1 mouse, male, plasma | intraperitoneal, 0.3 mg/kg |  | elimination rate constant | 1.85e-05 s⁻¹ |
| O=c1ccc2ccccc2o1 | HepG2 | item: cell count |  | concentration not given, 24 h, mitochondrial oxidative stress panel |  | probability of response | 8.41% |
| COc1cccc(Oc2ccccc2NC(=O)CNC(=O)c2cccc3ccccc23)c1 |  |  | esterase-deficient SCID mice, male, blood | oral, 40 mg/kg/day, 14 days, toxicity study |  | hemoglobin | 13.6 g/dL and 12.8 g/dL and 13.9 g/dL |
| CO[C@H]1C[C@@H]2CC[C@@H](C)[C@@](O)(O2)C(=O)C(=O)N2CCCC[C@H]2C(=O)O[C@H]([C@H](C)C[C@@H]2CC[C@@H](OC(=O)NCCOCCOCCOCCOCCOCCOCCOCCOCCC(=O)N3CCc4cc(Cn5nc(-c6ccc7oc(N)nc7c6)c6c(N)ncnc65)ccc4C3)[C@H](OC)C2)C[C@@H](O)[C@H](C)/C=C(\C)[C@@H](O)[C@@H](OC)C(=O)[C@H](C)C[C@H](C)/C=C/C=C/C=C/1C |  |  | patients with advanced solid tumours | intravenous, 10 mg weekly, any grade |  | nausea incidence | 50% |
| CC[C@H](C)[C@H](NC(=O)[C@H](CC(C)C)NC(=O)[C@H](Cc1c[nH]c2ccccc12)NC(=O)[C@H](CCC(N)=O)NC(=O)[C@@H](NC(=O)[C@H](Cc1ccccc1)NC(=O)[C@H](C)NC(=O)[C@H](CCCCNC(=O)COCCOCCNC(=O)COCCOCCNC(=O)CC[C@H](NC(=O)CCCCCCCCCCCCCCCCCCC(=O)O)C(=O)O)NC(=O)[C@H](CCC(N)=O)NC(=O)[C@H](C)NC(=O)[C@@H](NC(=O)[C@H](CCCCN)NC(=O)[C@H](CC(=O)O)NC(=O)[C@H](CC(C)C)NC(=O)C(C)(C)NC(=O)[C@@H](NC(=O)[C@H](CO)NC(=O)[C@H](Cc1ccc(O)cc1)NC(=O)[C@H](CC(=O)O)NC(=O)[C@H](CO)NC(=O)[C@@H](NC(=O)[C@H](Cc1ccccc1)NC(=O)[C@@H](NC(=O)CNC(=O)[C@H](CCC(=O)O)NC(=O)C(C)(C)NC(=O)[C@@H](N)Cc1ccc(O)cc1)[C@@H](C)O)[C@@H](C)O)[C@@H](C)CC)[C@@H](C)CC)C(C)C)C(=O)N[C@@H](C)C(=O)NCC(=O)NCC(=O)N1CCC[C@H]1C(=O)N[C@@H](CO)C(=O)N[C@@H](CO)C(=O)NCC(=O)N[C@@H](C)C(=O)N1CCC[C@H]1C(=O)N1CCC[C@H]1C(=O)N1CCC[C@H]1C(=O)N[C@@H](CO)C(N)=O |  |  | human, plasma | subcutaneous, 15 mg, week 8, geometric mean |  | CL/F | 0.535 mL/min |
| CN1CC[C@@H](c2c(O)cc(O)c3c(=O)cc(-c4ccc(C(F)(F)F)cc4Cl)oc23)[C@@H]1CO |  | item: Neutropenia | relapsed or refractory haematological malignancies | oral, dose not given, grade 3 to 4, all arms |  | patients with adverse event | 7.5% |
| COc1cc2c(Oc3ccc4[nH]c(C)cc4c3F)ccnc2cc1OCC1(N)CC1 |  |  | paediatric recurrent refractory sarcoma | 8 mg/kg |  | grade 1 or 2 TBIL elevation | 0% |
| Clc1ccc(-c2ccc(Cl)c(Cl)c2Cl)cc1Cl |  |  | polyethylene-water partitioning | PCB compilation | relative to: maximum over minimum K | literature range factor | 3 |
| CCN(CCO)CCCC(C)Nc1ccnc2cc(Cl)ccc12 (stereo not shown) |  |  | newly diagnosed glioblastoma patients | oral, 800 mg/dose, grade 2, with: radiotherapy and temozolomide |  | white cell decrease patients | 33% |
| O=S(=O)(Nc1ccccc1)c1ccc(NC(=S)Nc2ccccc2)cc1 |  |  | female mice, liver | oral, 5 mg/kg daily 14 days | relative to: body weight | relative organ weight | 4.88% |
| Clc1cc(-c2cc(Cl)c(Cl)c(Cl)c2)cc(Cl)c1Cl |  |  | fresh water | 20 °C, S30-1 sampler, 30 µm |  | log K(PDMS-water) | 6.27 ± 0.08 |
| CC[C@H](C)[C@H](NC(=O)[C@H](Cc1ccccc1)NC(=O)[C@H](CCC(=O)O)NC(=O)[C@H](CCCNC(=N)N)NC(=O)[C@H](C)NC(=O)[C@H](C)NC(=O)[C@H](CCC(N)=O)NC(=O)[C@H](CCC(=O)O)NC(=O)[C@H](CCC(=O)O)NC(=O)[C@H](CC(C)C)NC(=O)[C@H](Cc1ccc(O)cc1)NC(=O)[C@H](CO)NC(=O)[C@H](CO)NC(=O)[C@@H](NC(=O)[C@H](CC(=O)O)NC(=O)[C@H](CO)NC(=O)[C@@H](NC(=O)[C@H](Cc1ccccc1)NC(=O)[C@@H](NC(=O)CNC(=O)[C@H](CCC(=O)O)NC(=O)[C@H](C)NC(=O)CCc1c[nH]cn1)[C@@H](C)O)[C@@H](C)O)C(C)C)C(=O)N[C@@H](C)C(=O)N[C@@H](Cc1c[nH]c2ccccc12)C(=O)N[C@@H](CC(C)C)C(=O)N[C@H](C(=O)N[C@@H](CCCNC(=N)N)C(=O)NCC(=O)N[C@@H](CCCNC(=N)N)C(=O)N[C@@H](CCCCNC(=O)COCCOCCNC(=O)COCCOCCNC(=O)CC[C@H](NC(=O)CCCCCCCCCCCCCCCCC(=O)O)C(=O)O)C(=O)NCC(=O)NCC(=O)N[C@@H](CO)C(=O)N[C@@H](CCCCNc1c(NCCCCCN(O)C(=O)CCC(=O)NCCCCCN(O)C(=O)CCC(=O)NCCCCCN(O)C(C)=O)c(=O)c1=O)C(=O)O)C(C)C [zirconium-89 labelled] |  |  | rat, spleen | sc, 3 nmol/kg, 24 h, ex vivo |  | tissue uptake | 0.27 %ID/g |
| CC[C@H](C)[C@@H]1NC(=O)[C@@H]2CCCN2C(=O)[C@H](CC(C)C)NC(=O)[C@H](CC(C)C)NC(=O)CNC(=O)[C@@H](NC(=O)[C@@H](NC(=O)[C@H](CC(=O)O)NC(=O)CNC(=O)[C@@H](NC(=O)[C@H](C)NC(=O)CNC(=O)[C@H](CCCCN)NC(=O)[C@H](CC(C)C)NC(=O)[C@H](CC(C)C)NC(=O)[C@H](CCCCN)NC(=O)CNC(=O)[C@@H](NC(=O)[C@@H](N)CC(C)C)C(C)C)C(C)C)C(C)C)CSSC[C@@H](C(=O)O)NC1=O |  | RNA-seq, item: Casp4 | mouse, traumatic brain injury model, frontal cortex and hippocampus | dose not given | relative to: TBI alone | log2 fold change | 1.58 |
| CCN1[C@@H](C(=O)NC23CCC(C(=O)O)(CC2)CC3)[C@H](c2cccc(Cl)c2F)[C@]2(C(=O)Nc3cc(Cl)ccc32)C12CCCCC2 |  |  | advanced solid tumour patients | oral, dose not given | relative to: patients | grade 3-4 treatment-related adverse events | 52.4% |
